{"data": "Published values from different studies", "note": "Each line is one published result; not all experiments were run side by side. Several values in a cell are separate wells, animals, samples, runs or records."}
{"SMILES": "COc1cc(N2CCN(C(=O)CN)CC2)ccc1Nc1ncc(Cl)c(Nc2ccccc2P(C)(C)=O)n1", "cell line": "NCI-H3122", "assay": "cell growth or viability, CCK-8", "setting": "25 nM, 48 h", "viability": "66%"}
{"SMILES": "COc1ccc(Cn2cc(CO[C@@H]3O[C@H]4[C@H](OC[C@H]4O)[C@H]3N=[N+]=[N-])nn2)cc1", "cell line": "SU-DHL10", "assay": "cytotoxicity, CellTiter-Glo", "setting": "up to 30 µM, 72 h", "viability": "not toxic"}
{"SMILES": "Cc1cc(Cl)cc(-c2ccnc3cc(CN4C(=O)C5C(C4=O)C5(C)C)sc23)c1C[C@@H]1CNCCO1 (stereo partly shown)", "cell line": "CAPAN-1", "assay": "cell growth or viability, SRB", "setting": "20 µM, 5 days", "viability": "0.381% and 0.161% and 0.223%"}
{"SMILES": "COC1C=CC(OC(=O)C=Cc2ccccc2)C(O)C1(O)COC(=O)c1ccccc1 (single isomer, unassigned; (-))", "cell line": "SW480", "assay": "cell growth or viability, MTT", "setting": "100 µg/mL", "viability": "65.1%"}
{"SMILES": "O=CCNCCOn1c(=O)n(OCCNCCO)c(=O)n(OCCNCCOn2c(=O)n(OCCNCCO)c(=O)n(OCCNCCO)c2=O)c1=O", "cell line": "HUVEC", "assay": "cell growth or viability, MTT", "setting": "25 µg/mL, 72 h", "viability": "21.8%"}
{"SMILES": "O=C(OC[C@@]1(O)C(=O)C=C[C@H]2[C@@H]1[C@H]1C=C[C@@H]2C(=O)[C@]1(O)COC(=O)c1ccccc1)c1ccccc1", "cell line": "SW480", "assay": "cell growth or viability, MTT", "setting": "25 µg/mL", "viability": "75.2%"}
{"SMILES": "[BH3-][P+]1(c2ccccc2)CCCCC1", "cell line": "SW480", "assay": "trypan blue", "setting": "IC50, 72 h", "viability": "96%"}
{"SMILES": "COc1cc2c(cc1OC)-c1c(oc3c4c(cc(O)c3c1=O)OC(C)(C)C=C4)CO2", "cell line": "SW480", "assay": "cell growth or viability, MTT", "setting": "100 µg/mL", "viability": "76.7%"}
{"SMILES": "O=C(c1ccc(C(=O)N2CCC(N3CCCC3)CC2)cc1)N1CCC(N2CCCC2)CC1", "cell line": "HEK-293T/17", "assay": "CellTiter-Glo", "setting": "up to 100 µM, 24 h", "viability": "not toxic"}
{"SMILES": "CN1CCCNC(=O)c2cccc(c2)C(=O)NCCCN(C)CCCNc2cccc3c2C(=O)c2cccc(c2C3=O)NCCC1", "cell line": "Ca9-22", "assay": "cell growth or viability, CCK-8", "setting": "0.15 µM, 48 h", "viability": "69%"}
{"SMILES": "CO[C@H]1C=C[C@@H](OC(=O)c2ccccc2)[C@H](O)[C@@]1(O)COC(=O)c1ccccc1", "cell line": "SW480", "assay": "cell growth or viability, MTT", "setting": "100 µg/mL", "viability": "65.3%"}
{"SMILES": "COc1cc(N2CCN(C(=O)CCOCCNC(=O)[C@@H]3CCCN3)CC2)ccc1Nc1ncc(Cl)c(Nc2ccccc2P(C)(C)=O)n1", "cell line": "NCI-H3122", "assay": "CCK-8", "setting": "0.25 µM, 48 h", "viability": "67% and 66% and 72%"}
{"SMILES": "COc1cc2c(cc1OC)[C@@H]1C(=O)c3c(O)cc4c(c3O[C@@H]1CO2)C=CC(C)(C)O4", "cell line": "SW480", "assay": "cell growth or viability, MTT", "setting": "100 µg/mL", "viability": "77.5%"}
{"note": "For quick reference, copied from above:"}
{"SMILES": "O=C(c1ccc(C(=O)N2CCC(N3CCCC3)CC2)cc1)N1CCC(N2CCCC2)CC1", "cell line": "HEK-293T/17", "assay": "CellTiter-Glo", "setting": "up to 100 µM, 24 h", "viability": "not toxic"}
